Assay results gathered from unrelated publications.
Compare with care: the assays were run in different laboratories. Values joined by “and” are separate records of one study, mostly repeats; a detail may differ. Values after ≈ are worked out from the molar mass of the structure shown.

SMILES | organism | assay | test system | setting | how to read | quantity | value
CCCCc1ccc(CNc2nc(N(C)C)nc(N(C)C)c2/N=N/c2ccc(Cl)cc2)cc1 | Ostrinia furnacalis | leaf dipping | – | 6.25 mg/L | – | mortality | 33.3%
COc1cc(-c2c(C)cc(O)cc2O[C@@H]2O[C@H](CO)[C@@H](O)[C@H](O)[C@H]2O)oc(=O)c1 | Bovine alphaherpesvirus 1 | viral replication | MDBK | – | – | IC50 | 0.021 µM
CC[C@H](C)[C@H](NC(=O)[C@H](C)NC(=O)[C@H](CCCCN)NC(=O)[C@H](CC(C)C)NC(=O)[C@H](C)NC(=O)[C@@H](NC(=O)[C@H](Cc1c[nH]cn1)NC(=O)[C@H](CC(C)C)NC(=O)[C@@H](NC(=O)[C@@H](NC(=O)[C@H](CCCCN)NC(=O)[C@H](C)NC(=O)[C@H](C)NC(=O)[C@H](CO)NC(=O)[C@H](CCCCN)NC(=O)[C@H](Cc1ccccc1)NC(=O)[C@@H](NC(=O)[C@H](CCCCN)NC(=O)[C@H](CC(C)C)NC(=O)[C@H](Cc1ccccc1)NC(=O)[C@H](CO)NC(=O)[C@H](CCCCN)NC(=O)[C@H](Cc1c[nH]c2ccccc12)NC(=O)[C@H](CCCCN)NC(C)=O)[C@@H](C)O)[C@@H](C)O)C(C)C)[C@@H](C)O)C(=O)N[C@@H](CO)C(=O)N[C@@H](CO)C(N)=O | Klebsiella pneumoniae | – | ATCC 700603 (ESBL) | – | – | MBC50 | 8 µg/mL (≈ 2.73 µM)
Cn1c(=O)ccc2ccc(F)c(CCNC[C@H]3CN(c4cnc5c(n4)NC(=O)CO5)C(=O)O3)c21 | Shigella spp. | – | – | – | – | MIC50 | 0.03 µg/mL (≈ 0.064 µM)
Cn1cc2c3c1C(=O)C(N)=CC3=[N+](C)CC2 | Saccharomyces cerevisiae | cell growth, liquid culture | BY4741 | 100 µM, 24 h | – | inhibition | 1.9%
CC(C)C[C@H](NC(=O)[C@H](CCN)NC(=O)[C@H](CCN)NC(=O)[C@@H](Cc1ccccc1)NC(=O)[C@H](CC(C)C)NC(=O)[C@H](CCN)NC(=O)[C@H](CCN)NC(=O)[C@@H](CCN)NC(=O)[C@@H](N)CSCCOC(=O)C(C)(C)C)C(N)=O | Acinetobacter calcoaceticus | BHI agar spot plating | – | 24 h, 37 °C | – | MBC | > 128 µM
C[C@@H](O[C@H]1OCCN(Cc2n[nH]c(=O)[nH]2)[C@H]1c1ccc(F)cc1)c1cc(C(F)(F)F)cc(C(F)(F)F)c1 | Human immunodeficiency virus 1 | viral replication | PBMC, subtype D isolate from Senegal, X4, SI | – | – | IC50 | 6.85 µM
C[C@]12CC[C@@H]3c4ccc(O)cc4CC[C@H]3[C@@H]1CC[C@@H]2O | Arabidopsis thaliana | – | shoots | 1 µM | – | ABA level | 45.3 pmol/g dry weight and 43.4 pmol/g dry weight and 41 pmol/g dry weight
CCc1cccc(C)c1N(C(=O)CCl)[C@@H](C)COC | Lolium multiflorum | – | – | 2.1 µg/mL | – | leaf development | 0%
Nc1ncnc2c1ncn2[C@@H]1O[C@@H]2COP(=O)(O)O[C@H]3[C@@H](O)[C@H](n4cnc5c(=O)[nH]cnc54)O[C@@H]3COP(=O)(O)O[C@H]2[C@H]1O | West Nile virus | RNA sequencing Reactome analysis, measured: Collagen degradation (R-HSA-1442490) | HFF-1 | concentration not given, downregulated pathways, added: West Nile virus infection | baseline: WNV-infected without compound | fold enrichment | 6.63
OB(O)c1csc2ccccc12 | Staphylococcus aureus | OD600 | USA300 fphE::Tn transposon mutant | 100 µM | baseline: wild type | growth | 52.3% and 50.9% and 57.3% and 43.9% and 62.9% and 59.8%
CCC(/N=N/c1ccc(Br)c2ccccc12)=C1SCCCS1 | Schistosoma mansoni | microscopic viability scoring | newly transformed schistosomula | 10 µM, 72 h, prescreen | – | viability reduction | 24.1%
CC(C)[C@H](NC(=O)[C@H](CCCNC(=N)N)NC(=O)[C@H](Cc1c[nH]c2ccccc12)NC(=O)[C@H](CCCNC(=N)N)NC(=O)[C@H](Cc1c[nH]c2ccccc12)NC(=O)[C@H](Cc1c[nH]c2ccccc12)NC(=O)[C@H](Cc1c[nH]c2ccccc12)NC(=O)[C@H](CCCNC(=N)N)NC(=O)[C@H](Cc1c[nH]c2ccccc12)NC(=O)[C@@H](N)CCCNC(=N)N)C(N)=O | Candida albicans | broth microdilution | CGMCC 2.209, RPMI 1640-MOPS | 48 h, 30 °C, added: ZnCl2 8 µM | – | MIC | 16 µM
CC1(C)SC2C(NC(=O)C(NC(=O)C3=C(O)C(Cc4ccccc4)NC3=O)c3ccccc3)C(=O)N2C1C(=O)O (stereo not shown) | Escherichia coli | broth microdilution | isolate IU 356 A, KPC-3, VIM-1, TEM | added: clavulanic acid 6 µg/mL | – | MIC | > 200 µg/mL
NC(=O)c1nc(F)c[nH]c1=O | Dengue virus | viral replication | BHK-21, DENV3 | 120 h | – | EC50 | 13 µM
CN[C@H](CC(C)C)C(=O)N[C@H]1C(=O)N[C@@H](CC(N)=O)C(=O)N[C@H]2C(=O)N[C@H]3C(=O)N[C@H](C(=O)N[C@H](C(=O)O)c4cc(O)cc(O)c4-c4cc3ccc4O)[C@H](O)c3ccc(c(Cl)c3)Oc3cc2cc(c3O[C@@H]2O[C@H](CO)[C@@H](O)[C@H](O)[C@H]2O[C@H]2C[C@](C)(N)[C@H](O)[C@H](C)O2)Oc2ccc(cc2Cl)[C@H]1O | Staphylococcus aureus | – | CAAS-2019-CAAS-2019-02 clinical drug-resistant isolate, 25% plasma | – | – | MBC | 4 µg/mL

SMILES | organism | assay | test system | setting | how to read | quantity | value
CC(C)C[C@H](NC(=O)[C@H](CCCNC(=N)N)NC(=O)[C@H](Cc1c[nH]c2ccccc12)NC(=O)[C@H](CCCNC(=N)N)NC(=O)[C@H](Cc1c[nH]c2ccccc12)NC(=O)[C@H](Cc1c[nH]c2ccccc12)NC(=O)[C@H](Cc1c[nH]c2ccccc12)NC(=O)[C@H](CCCNC(=N)N)NC(=O)[C@H](Cc1c[nH]c2ccccc12)NC(=O)[C@H](CCCNC(=N)N)NC(=O)CN)C(N)=O | Candida albicans | broth microdilution | CGMCC 2.209, RPMI 1640-MOPS | 48 h, 30 °C, added: NaCl 150 mM | – | MIC | 64 µM
COc1ccccc1Cc1cc2c(C(C)C)ccc(C)c2oc1=O | Schistosoma mansoni | microscopic viability scoring | newly transformed schistosomula | 10 µM, 72 h, prescreen | – | viability reduction | 10.7%
Nc1ncnc2c([C@@H]3N[C@H](CO)[C@@H](O)[C@H]3O)c[nH]c12 | Rhinovirus A | viral replication | HRV2 HGP | 0.3 µM | – | inhibition | 0%
O=C1OC(C(F)(F)F)N=C1c1ccc(O)cc1 (stereo not shown) | Schistosoma mansoni | microscopic viability scoring | newly transformed schistosomula | 10 µM, 72 h, prescreen | – | viability reduction | 6.7%
COC(=O)N[C@H](C(=O)N1CCC[C@H]1c1ncc(-c2ccc(-c3ccc(-c4cnc([C@@H]5CCCN5C(=O)[C@@H](NC(=O)OC)C(C)C)[nH]4)cc3)cc2)[nH]1)C(C)C | hepatitis C virus | HCV replicon | – | 50% effect level, added: IFN-α, ratio 2.5:1 | – | combination index | 0.88 and 0.69
CCCCCCCC(C)(C)c1cc(O)c2cc(Cc3ccccc3O)c(=O)oc2c1 | Schistosoma mansoni | microscopic viability scoring | newly transformed schistosomula | 10 µM, 72 h, prescreen | – | viability reduction | 100%
CC1(C)NC(=O)N(c2cccc(S(F)(F)(F)(F)F)c2)C1=O | Schistosoma mansoni | – | adult, infected NMRI mice | oral, 100 mg/kg single dose | – | worm burden reduction | 43%
O=c1c2ccccc2oc2ccc(I)cc12 | Schistosoma mansoni | microscopic viability scoring | newly transformed schistosomula | 10 µM, 72 h, prescreen | – | viability reduction | 0%
CCOC(=O)C1=C(CN2CCOCC2)NC(c2nccs2)=NC1c1ccc(F)cc1Br (stereo not shown) | Hepatitis B virus | measured: HBV pgRNA | chronic HBV infection patients | oral, 120 mg/day, 28 days, added: ritonavir 100 mg/day | baseline: baseline | change in serum pgRNA | -0.75 log10 copies/mL
CCN(CC)c1ccc2cc(N)c(=O)oc2c1 | Schistosoma mansoni | microscopic viability scoring | newly transformed schistosomula | 10 µM, 72 h, prescreen | – | viability reduction | 6.3%
CS(=O)(=O)CCCn1c(Cn2c(=O)n(CC(F)(F)F)c3ccncc32)cc2cc(Cl)ccc21 | respiratory syncytial virus | RT-qPCR | hospitalized infants 1-24 months, nasal swab | oral, 8 mg/kg daily, day 28, cohort 6-24 months | baseline: placebo | LS mean difference vs placebo | 0.72 log10 copies/mL
O=S(=O)(c1nc2ccccc2s1)C(F)c1ccccc1Br (stereo not shown) | Schistosoma mansoni | microscopic viability scoring | newly transformed schistosomula | 10 µM, 72 h, prescreen | – | viability reduction | 86.2%
COc1cnc(OC)n2nc(NS(=O)(=O)c3c(OCC(F)F)cccc3C(F)(F)F)nc12 | Arabidopsis thaliana | – | Col-0, seed germination, dark | 200 µg/mL, 7 days, 22 °C | – | root length inhibition | 100%
C[C@@H]1C[C@H](O)[C@]2(O)O[C@@H]3C[C@@]4(C=O)[C@@H](CC[C@@H]5[C@@H]4CC[C@]4(C)[C@@H](C6=CC(=O)OC6)CC[C@]54O)C[C@H]3O[C@@H]2O1 | Schistosoma mansoni | microscopic viability score | adult worms | 0.1 µM, 72 h | – | viability effect | 22.9%
Cc1c2c(nn1C)CSCc1cc(n(C)n1)CSc1cc(c3ccccc3c1)OCCCc1c(C(=O)O)n(C)c3c-2c(Cl)ccc13 | Staphylococcus aureus | label-free proteomics, measured: ald1 | SA113 | concentration not given | baseline: untreated | log2 fold change | -4.02

For quick reference, copied from above:
SMILES | organism | assay | test system | setting | how to read | quantity | value
CCCCc1ccc(CNc2nc(N(C)C)nc(N(C)C)c2/N=N/c2ccc(Cl)cc2)cc1 | Ostrinia furnacalis | leaf dipping | – | 6.25 mg/L | – | mortality | 33.3%
Nc1ncnc2c1ncn2[C@@H]1O[C@@H]2COP(=O)(O)O[C@H]3[C@@H](O)[C@H](n4cnc5c(=O)[nH]cnc54)O[C@@H]3COP(=O)(O)O[C@H]2[C@H]1O | West Nile virus | RNA sequencing Reactome analysis, measured: Collagen degradation (R-HSA-1442490) | HFF-1 | concentration not given, downregulated pathways, added: West Nile virus infection | baseline: WNV-infected without compound | fold enrichment | 6.63
COc1cnc(OC)n2nc(NS(=O)(=O)c3c(OCC(F)F)cccc3C(F)(F)F)nc12 | Arabidopsis thaliana | – | Col-0, seed germination, dark | 200 µg/mL, 7 days, 22 °C | – | root length inhibition | 100%
CC[C@H](C)[C@H](NC(=O)[C@H](C)NC(=O)[C@H](CCCCN)NC(=O)[C@H](CC(C)C)NC(=O)[C@H](C)NC(=O)[C@@H](NC(=O)[C@H](Cc1c[nH]cn1)NC(=O)[C@H](CC(C)C)NC(=O)[C@@H](NC(=O)[C@@H](NC(=O)[C@H](CCCCN)NC(=O)[C@H](C)NC(=O)[C@H](C)NC(=O)[C@H](CO)NC(=O)[C@H](CCCCN)NC(=O)[C@H](Cc1ccccc1)NC(=O)[C@@H](NC(=O)[C@H](CCCCN)NC(=O)[C@H](CC(C)C)NC(=O)[C@H](Cc1ccccc1)NC(=O)[C@H](CO)NC(=O)[C@H](CCCCN)NC(=O)[C@H](Cc1c[nH]c2ccccc12)NC(=O)[C@H](CCCCN)NC(C)=O)[C@@H](C)O)[C@@H](C)O)C(C)C)[C@@H](C)O)C(=O)N[C@@H](CO)C(=O)N[C@@H](CO)C(N)=O | Klebsiella pneumoniae | – | ATCC 700603 (ESBL) | – | – | MBC50 | 8 µg/mL (≈ 2.73 µM)
